Published values of several laboratories.
Lines come from different studies, so protocols differ.

Structure (SMILES)	test system	setting	Cmax
CC(=O)N1CCC=C(c2cc3c(Nc4cc5ncsc5cc4F)ncnc3s2)C1	mouse, plasma	oral, 10 mg/kg	2460 ng/mL
Oc1ccc([C@@H]2Oc3ccc(O)cc3[C@@H]3CCC[C@@H]32)cc1	male C57BL/6 mouse, plasma	oral, 10 mg/kg	0.27 µM
CC[C@H](C)/C=C/C=C/C=C/C(O)=C/C(=O)C(Cl)(Cl)Cl	female C57BL/6 mouse, plasma	oral, 25 mg/kg	2.4 µM
Cn1ccc(-c2cc(Cl)c(Cl)c3[nH]c4c(c23)CN(C(=O)CO)CC4)n1	C57BL/6 mouse, blood	oral, 20 mg/kg	19.6 µM
O=C(O)c1ccc(/C=C2\SC(=S)N(Cc3cccc(C(F)(F)F)c3)C2=O)cc1	C57BL/6 mouse, blood	oral, 10 mg/kg	3250 ng/mL
C/C(N)=N/C(=N\S(=O)(=O)c1ccc(C(F)(F)F)cc1)N1C[C@H](c2ccccc2)C(c2ccc(Cl)cc2)=N1	C57BL/6 mouse, muscle	intravenous, 10 mg/kg	3760 ng/mL
Cn1c2cc([S+](C)[O-])sc2c2cnn(Cc3cccc(N)c3)c(=O)c21 (centres unmarked)	male BALB/c mouse, plasma	oral, 10 mg/kg, single dose	10200 ng/mL
O=C(OC(C(F)(F)F)C(F)(F)F)N1CCC(CNS(=O)(=O)c2ccc(Cl)cc2)CC1	male SCID mouse, plasma	oral, 10 mg/kg	218 ng/mL
O=C1CCC(N2C(=O)c3ccc(N4CCC(C(=O)N5CCC(CCN6CCC(CNC(=O)c7cccc(-c8noc(C(F)(F)F)n8)c7)(c7nc(-c8ccccc8)cs7)CC6)CC5)CC4)cc3C2=O)C(=O)N1 (centres unmarked)	CD-1 mouse, plasma	intraperitoneal, 30 mg/kg	2600 ng/mL
CC(=O)N1c2ccc(-c3ccc(CNC(=O)c4cn5cc(-c6cnc(N)nc6)nc(N6CCOCC6)c5n4)cc3)cc2CC[C@@H]1C	female C57BL/6 mouse, plasma	intraperitoneal, 45 mg/kg, single dose	43.9 µM
COc1cnc2cccc(N3CCc4c(cc(Cn5ccnc5)cc4-c4cn(C)nc4C(F)(F)F)C3=O)c2c1	male CD-1 mouse, plasma	oral, 50 mg/kg	14100 ng/mL
Cc1cc(NCC(=O)C(C)(C)C)c2nc(N3CCOC[C@H]3C)cc(=O)n2c1	C57BL/6 mouse, plasma	intraperitoneal, 10 mg/kg, single dose	2260 ng/mL
Cc1cc(NC(=O)[C@H](O)c2cc(F)cc(F)c2)ccc1-c1cnc(N)c(C(=O)NC(C)C)c1	female nude mouse, plasma	oral, 30 mg/kg, single dose	3670 ng/mL
CCC(=O)NC1CC=C(c2cc3c(Nc4cc5ncsc5cc4F)ncnc3s2)CC1 (racemic)	mouse, plasma	intravenous, 10 mg/kg	4330 ng/mL
C[C@@]1(c2nc(-c3ccc(F)c4cn[nH]c34)no2)CCCN(C(=O)c2ccc(F)nc2)C1	male C57BL/6 mouse, plasma	intraperitoneal, 20 mg/kg	7570 ng/mL
CCC(=O)N1CCC=C(c2cc3c(Nc4cc5ncsc5cc4F)ncnc3s2)C1	mouse, plasma	oral, 10 mg/kg	3590 ng/mL
CN[C@H](CC(C)C)C(=O)N[C@H]1C(=O)N[C@@H](CC(N)=O)C(=O)N[C@H]2C(=O)N[C@H]3C(=O)N[C@H](C(=O)N[C@H](C(=O)N[C@H](CCCNC(=N)N)C(N)=O)c4cc(O)cc(O)c4-c4cc3ccc4O)[C@H](O)c3ccc(c(Cl)c3)Oc3cc2cc(c3O[C@@H]2O[C@H](CO)[C@@H](O)[C@H](O)[C@H]2O[C@H]2C[C@](C)(N)[C@H](O)[C@H](C)O2)Oc2ccc(cc2Cl)[C@H]1O	female CD-1 mouse, plasma	intravenous, 10 mg/kg, single dose	23400 ng/mL

Repeated from above:
Structure (SMILES)	test system	setting	Cmax
Cn1c2cc([S+](C)[O-])sc2c2cnn(Cc3cccc(N)c3)c(=O)c21 (centres unmarked)	male BALB/c mouse, plasma	oral, 10 mg/kg, single dose	10200 ng/mL
Cc1cc(NC(=O)[C@H](O)c2cc(F)cc(F)c2)ccc1-c1cnc(N)c(C(=O)NC(C)C)c1	female nude mouse, plasma	oral, 30 mg/kg, single dose	3670 ng/mL
CC(=O)N1c2ccc(-c3ccc(CNC(=O)c4cn5cc(-c6cnc(N)nc6)nc(N6CCOCC6)c5n4)cc3)cc2CC[C@@H]1C	female C57BL/6 mouse, plasma	intraperitoneal, 45 mg/kg, single dose	43.9 µM
